Measured values of several laboratories.
Each line is one published result; not all experiments were run side by side. ± marks the error that the study gave.
ABCB1: ATP-dependent translocase ABCB1 (ABCB1, Homo sapiens, UniProt P08183)
UniProt P08183, sequence (whole entry, looked up): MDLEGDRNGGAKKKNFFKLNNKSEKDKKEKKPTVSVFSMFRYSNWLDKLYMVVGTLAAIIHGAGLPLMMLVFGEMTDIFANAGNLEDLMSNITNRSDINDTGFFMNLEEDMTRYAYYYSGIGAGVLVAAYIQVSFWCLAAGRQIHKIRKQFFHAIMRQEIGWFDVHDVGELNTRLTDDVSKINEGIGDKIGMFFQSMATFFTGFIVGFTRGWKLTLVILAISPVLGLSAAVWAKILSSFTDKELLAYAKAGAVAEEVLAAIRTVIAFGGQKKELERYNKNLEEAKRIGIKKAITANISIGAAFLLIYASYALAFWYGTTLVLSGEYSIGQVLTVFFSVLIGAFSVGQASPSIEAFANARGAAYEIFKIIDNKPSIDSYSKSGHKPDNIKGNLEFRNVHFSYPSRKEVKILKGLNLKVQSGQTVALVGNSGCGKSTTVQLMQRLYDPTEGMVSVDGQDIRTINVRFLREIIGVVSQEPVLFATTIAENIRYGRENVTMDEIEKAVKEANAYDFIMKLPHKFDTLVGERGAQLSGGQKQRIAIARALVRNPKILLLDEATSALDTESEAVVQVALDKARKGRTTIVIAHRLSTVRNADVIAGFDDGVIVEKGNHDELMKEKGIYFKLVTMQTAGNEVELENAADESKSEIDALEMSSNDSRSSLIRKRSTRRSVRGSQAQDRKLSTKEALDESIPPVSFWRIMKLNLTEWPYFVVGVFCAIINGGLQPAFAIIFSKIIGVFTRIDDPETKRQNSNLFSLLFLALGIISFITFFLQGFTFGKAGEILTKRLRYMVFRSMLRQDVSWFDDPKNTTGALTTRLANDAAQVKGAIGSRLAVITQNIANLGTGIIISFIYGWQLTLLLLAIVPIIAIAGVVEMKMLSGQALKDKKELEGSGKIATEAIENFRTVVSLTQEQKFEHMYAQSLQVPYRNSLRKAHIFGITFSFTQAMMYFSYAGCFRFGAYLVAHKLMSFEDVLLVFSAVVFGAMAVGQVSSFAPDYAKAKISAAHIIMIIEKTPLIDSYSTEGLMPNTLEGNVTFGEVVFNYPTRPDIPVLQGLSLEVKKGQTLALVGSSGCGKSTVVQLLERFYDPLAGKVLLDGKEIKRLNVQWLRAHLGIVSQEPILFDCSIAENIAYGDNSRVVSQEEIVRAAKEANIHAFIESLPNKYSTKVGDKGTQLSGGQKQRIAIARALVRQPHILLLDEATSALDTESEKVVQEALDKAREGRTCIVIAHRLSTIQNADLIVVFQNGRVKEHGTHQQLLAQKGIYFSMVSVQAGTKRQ

COC(=O)[C@H]1[C@@H](OC(=O)c2ccccc2)C[C@@H]2CC[C@H]1N2C
stability bias (rat whole blood; 500 nM, 4 h, room temperature): -0.07%

[Cl-].[Cl-].[Pt+2].[Ru+2].c1ccc(-c2nc3ccccc3nc2-c2ccccn2)nc1.c1cnc2c(c1)ccc1cccnc12.c1cnc2c(c1)ccc1cccnc12
survival rate (Danio rerio; embryos; 15 µM, 72 h): 86.7 ± 2.4%

COc1cc(C(=O)OCCCN2CCCN(CCCOC(=O)c3cc(OC)c(OC)c(OC)c3)CC2)cc(OC)c1OC
CC50 (African green monkey cells; 5 days): 28.2 µM

CN1CC[C@]23c4c5ccc(O)c4O[C@H]2[C@@H](O[C@@H]2O[C@H](C(=O)O)[C@@H](O)[C@H](O)[C@H]2O)C=C[C@H]3[C@H]1C5
stability bias (rat whole blood; 500 nM, 4 h, room temperature): -5.3%

Cc1ncc2n1-c1ccc(Cl)cc1C(c1ccccc1F)=NC2
AUC(0-last) (healthy volunteers, plasma; oral, 5 mg, day 11, added: momelotinib, once daily 200 mg, days 4-11): 80.6 ng·h/mL

COC(=O)[C@H]1[C@@H](OC(=O)c2ccccc2)C[C@@H]2CC[C@H]1N2
stability bias (rat, whole blood; 10 nM, 4 months, -80 °C, long-term storage): 2.67%

Cc1cc(C)c2nc(-c3cnc(NCCCC4CCN(C)CC4)nc3C)[nH]c2c1
CC50 (African green monkey cells; 5 days): 22.4 µM

CN1CC[C@]23c4c5ccc(O[C@@H]6O[C@H](C(=O)O)[C@@H](O)[C@H](O)[C@H]6O)c4O[C@H]2[C@@H](O)C=C[C@H]3[C@H]1C5
stability bias (rat, whole blood; 10 nM, 4 freeze-thaw cycles): -10.5%

O=[N+]([O-])c1ccc(N2CCN(CCC(O)c3ccc(F)cc3)CC2)c(C(F)(F)F)c1 (stereo not drawn)
survival (Salmonella typhimurium; SOS/umu test; TA1535/pSK1002; 0.063 mg/mL, 4 h, with S9, lower range): 99.2%

C[C@H](Cc1ccc(O)c(O)c1)[C@@H](C)Cc1ccc(O)c(O)c1
CC50 (African green monkey cells; 5 days): 37.2 µM

CC(C)CC(=O)OC[C@H]1O[C@@](C#N)(c2ccc3c(N)ncnn23)[C@H](O)[C@@H]1O
Papp B to A (ABCB1; Caco-2; 90 µM, 2 h): 1.9 ×10⁻⁶ cm/s

O=C1c2c(O)c(=O)ccn2N([C@@H]2c3ccccc3SCc3c2ccc(F)c3F)[C@@H]2COCCN12
plasma concentration (BALB/c mice, plasma; oral, 0.5 mg/kg baloxavir marboxil, 12 h): not detected

CCCCCCC(C)(C)c1cc(O)c2c(c1)OC(C)(C)[C@@H]1CC=C(C(=O)O)C[C@@H]21
CC50 (African green monkey cells; 5 days): 21.4 µM

O=C(c1ccc(F)c(F)c1Nc1ccc(I)cc1F)N1CC(O)([C@@H]2CCCCN2)C1
treatment-related serious AE (patients aged 2 to 6 years; oral, dose not given): 0%

CNC(=O)c1c(N(C)N=O)ncn1C
revertant colonies per plate (Salmonella typhimurium; plate incorporation; TA1537, water; 1500 µg/plate, without S9): 14 ± 7

CN1CCC(CN2c3ccccc3Sc3ccccc32)C1 (stereo not drawn)
CC50 (African green monkey cells; 5 days): 14.8 µM

O=c1ccc2ccccc2o1
chance response (NHEK; ER stress, measured: ATF4; concentration not given, 24 h): 0.02%

O=C(NCc1cccnc1)Nc1ccc([N+](=O)[O-])cc1
degeneration index difference (mouse DRG neurons; neurite degeneration; 50 µM, 24 h; baseline: vehicle): 50.6

Cc1cc(C(=O)NC(C)(C)COc2cccc3c2C(N)=NS(=O)(=O)N3)cc(C)n1
revertant ratio (Salmonella typhimurium; Ames test, confirmatory; TA98; 3333 µg/plate, added: rat liver S9; baseline: solvent control): 1.4

COC(=O)[C@@H]1[C@H]2CC[C@@H](C[C@@H]1O)N2C
stability bias (rat, whole blood; 10 nM, 4 months, -80 °C, long-term storage): 15%

CC(C)n1c(C2CCNCC2)nc2c([N+](=O)[O-])c(Br)c(Br)cc21
AE leading to discontinuation (patients with AML; 125 mg, respiratory distress): 2%

CN1[C@H]2CC[C@@H]1[C@@H](C(=O)O)[C@@H](OC(=O)c1ccccc1)C2
stability bias (rat, whole blood; 10 nM, 4 h, room temperature, bench-top storage): -17.8%

COC(=O)C1=C(C)NC(C)=C(C(=O)OC2CCCN(Cc3ccccc3)C2)C1c1cccc([N+](=O)[O-])c1 (stereo not drawn)
CC50 (African green monkey cells; 5 days): 14.8 µM

COc1ccc2cc1Oc1ccc(cc1)C[C@H]1c3cc(c(OC)cc3CCN1C)Oc1c(OC)c(OC)cc3c1[C@H](C2)N(C)CC3
inhibition (ABCB1; transport, inhibitor; 10 µM, added: NMN): 90.2%

Cc1cc2cc(Oc3ccnc(Nc4cccc(CS(=O)(=O)NCCN(C)C)c4)n3)ccc2[nH]1
CC50 (African green monkey cells; 5 days): 4.9 µM

COc1cccc(-c2n[nH]c(SCc3ccccn3)n2)c1OC
revertant colonies per plate (Salmonella typhimurium; Ames test, plate incorporation; TA1537; 0.13 mg/plate, with rat liver S9): 15

CC(=O)Oc1ccc2c3c1O[C@H]1[C@@H](OC(C)=O)C=C[C@H]4[C@@H](C2)N(C)CC[C@@]341
stability bias (rat, whole blood; 1000 nM, 4 h, room temperature, bench-top storage): -14.6%

CCCCN(CCCC)CCC(O)c1cc2c(Cl)cc(Cl)cc2c2cc(C(F)(F)F)ccc12 (stereo not drawn)
CC50 (African green monkey cells; 5 days): 15.1 µM

CC(=O)O[C@H]1C=C[C@H]2[C@H]3Cc4ccc(O)c5c4[C@@]2(CCN3C)[C@H]1O5
stability bias (rat, whole blood; 500 nM, 4 months, -80 °C, long-term storage): -2.32%

CC1CCNc2c(C(=O)NC/C=C/S(C)(=O)=O)cccc21 (stereo not drawn)
clearance (male C57BL/6 mice, plasma; intravenous, 2.5 mg/kg, 24 h): 532 ± 93.8 mL/min/kg

Repeated from above:
COc1cccc(-c2n[nH]c(SCc3ccccn3)n2)c1OC
revertant colonies per plate (Salmonella typhimurium; Ames test, plate incorporation; TA1537; 0.13 mg/plate, with rat liver S9): 15

CCCCCCC(C)(C)c1cc(O)c2c(c1)OC(C)(C)[C@@H]1CC=C(C(=O)O)C[C@@H]21
CC50 (African green monkey cells; 5 days): 21.4 µM

CCCCN(CCCC)CCC(O)c1cc2c(Cl)cc(Cl)cc2c2cc(C(F)(F)F)ccc12 (stereo not drawn)
CC50 (African green monkey cells; 5 days): 15.1 µM

COC(=O)[C@H]1[C@@H](OC(=O)c2ccccc2)C[C@@H]2CC[C@H]1N2C
stability bias (rat whole blood; 500 nM, 4 h, room temperature): -0.07%
